Assay results from different studies.
A part holds a random share of what one study measured. Positions count from the first letter of the parent shown.

Study 1 — technique: universal PBM; form: double-stranded DNA, one strand shown; medium: in vitro; concentration: 600 nM; direction: higher = stronger binding
Target: Sal-like protein 4, full length isoform A (SALL4, Homo sapiens, UniProt Q9UJQ4, residues 1-1053)
Chain of UniProt Q9UJQ4 (whole entry, looked up): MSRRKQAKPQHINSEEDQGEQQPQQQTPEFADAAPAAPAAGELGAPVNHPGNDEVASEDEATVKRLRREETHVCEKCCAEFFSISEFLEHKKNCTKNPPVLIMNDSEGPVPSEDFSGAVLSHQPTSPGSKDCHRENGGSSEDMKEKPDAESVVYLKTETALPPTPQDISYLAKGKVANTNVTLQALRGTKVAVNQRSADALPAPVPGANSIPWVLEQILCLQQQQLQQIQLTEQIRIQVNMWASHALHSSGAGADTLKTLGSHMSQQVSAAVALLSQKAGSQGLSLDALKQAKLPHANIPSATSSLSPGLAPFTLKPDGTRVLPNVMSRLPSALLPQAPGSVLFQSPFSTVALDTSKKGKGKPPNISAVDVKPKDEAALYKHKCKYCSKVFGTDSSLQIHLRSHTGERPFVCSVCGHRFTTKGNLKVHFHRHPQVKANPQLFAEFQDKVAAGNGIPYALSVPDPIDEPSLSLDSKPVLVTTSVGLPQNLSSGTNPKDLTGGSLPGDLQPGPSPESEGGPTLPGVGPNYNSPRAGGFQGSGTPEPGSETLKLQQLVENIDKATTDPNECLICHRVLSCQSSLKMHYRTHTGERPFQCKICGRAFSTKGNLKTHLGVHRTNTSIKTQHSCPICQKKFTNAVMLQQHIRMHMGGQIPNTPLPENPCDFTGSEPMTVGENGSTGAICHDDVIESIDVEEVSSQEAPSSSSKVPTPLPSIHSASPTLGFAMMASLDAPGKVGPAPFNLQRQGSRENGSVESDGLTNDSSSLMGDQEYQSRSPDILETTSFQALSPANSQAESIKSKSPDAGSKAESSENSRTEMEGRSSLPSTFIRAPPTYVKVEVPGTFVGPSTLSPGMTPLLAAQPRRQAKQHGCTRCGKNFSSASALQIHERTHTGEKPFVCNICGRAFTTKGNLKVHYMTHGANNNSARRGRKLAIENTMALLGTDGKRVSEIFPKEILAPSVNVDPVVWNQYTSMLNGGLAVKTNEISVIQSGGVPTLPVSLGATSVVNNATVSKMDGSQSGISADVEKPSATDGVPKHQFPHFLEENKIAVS
Notes: 8-mer, flanks averaged, mean of replicates
`GACATTCC` has an E-score of -0.0558.
The E-score of `ATTAAACG` is reported as 0.261.
The E-score of `AGAAAGTG` is reported as -0.122.
With `CAAATCTA` the E-score was 0.213.
`AGCGAACC` gave an E-score of -0.101.
The E-score of `ATTCAACA` is reported as 0.15.

Study 2 — technique: protein-binding microarray; form: double-stranded DNA, one strand shown; medium: in vitro; concentration: 250 nM; notes: 60-bp whole probe; with: salmon DNA 0.4 mg/ml; reference: random background probes; direction: higher = stronger binding; shared flanks, not repeated: GCCTAGCAC … GTCTTGATTCGCTTGACGCTGCTG
Target: Interferon regulatory factor 7, full length, phosphomimetic (IRF7, Homo sapiens, UniProt Q92985, residues 1-503, S101K/S471D/S472D/S475D/S476D/S477D/S483D/S484D/S487D)
Chain of UniProt Q92985 (whole entry, unmodified, looked up): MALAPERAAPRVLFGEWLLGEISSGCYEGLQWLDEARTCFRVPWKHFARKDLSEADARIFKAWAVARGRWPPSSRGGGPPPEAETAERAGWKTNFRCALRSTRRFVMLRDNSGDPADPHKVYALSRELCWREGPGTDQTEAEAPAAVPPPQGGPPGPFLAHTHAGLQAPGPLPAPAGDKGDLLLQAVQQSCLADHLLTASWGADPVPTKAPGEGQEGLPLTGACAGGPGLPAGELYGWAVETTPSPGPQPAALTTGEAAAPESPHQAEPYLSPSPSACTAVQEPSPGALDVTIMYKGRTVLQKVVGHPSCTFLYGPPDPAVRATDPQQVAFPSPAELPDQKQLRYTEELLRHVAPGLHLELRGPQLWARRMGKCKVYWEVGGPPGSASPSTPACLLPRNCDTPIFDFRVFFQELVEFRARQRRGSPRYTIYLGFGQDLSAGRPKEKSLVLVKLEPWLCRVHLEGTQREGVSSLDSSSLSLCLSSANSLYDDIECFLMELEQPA
`GACGGACTGGTACTGCTGACGTGCTAG` has a log fluorescence of -0.608 z-score.
`GACGATTTCGGGGTTCGAGACGTGCTA` gave a log fluorescence of 0.302 z-score.
For `TGATCTCTGGTCTTTGTCAGGTGCTAG`, the log fluorescence was 0.165 z-score.
With `TTAGGTATCGACTTTCGGTTGGTGCTA` the log fluorescence was 2.91 z-score.
`TTTAAGCTCCTATCTTATGATGTGCTA` has a log fluorescence of -0.0546 z-score.
`CTCTTTTTGCTTTCTTTATGGTGCTAG` has a log fluorescence of 2.18 z-score.
`GCCGGACTGGGGTTTCGGGACGTGCTA` has a log fluorescence of 1 z-score.
With `TTAGGAATCGGGTATCGGTTAGTGCTA` the log fluorescence was 1.07 z-score.
`GACGATATCAGTATTGAGACGTGCTAG` has a log fluorescence of -0.0305 z-score.
`GACGAAATGGGGTTTCGAGACGTGCTA` gave a log fluorescence of 2.5 z-score.
With `TCAAGGCTGGTCTCTAACACTGTGCTA` the log fluorescence was -1.32 z-score.

Study 3 — technique: DHFR PCA, deep sequencing; medium: yeast; with: (+)-ABA 4.8 µM; reference: wild-type fitted maximum; direction: higher = stronger binding
Target: ABI1, truncated, D143A, DHFR fusion (Arabidopsis thaliana)
Notes: methotrexate growth selection, single substitutions
Parent: PYL1, truncated, DHFR fusion (Arabidopsis thaliana); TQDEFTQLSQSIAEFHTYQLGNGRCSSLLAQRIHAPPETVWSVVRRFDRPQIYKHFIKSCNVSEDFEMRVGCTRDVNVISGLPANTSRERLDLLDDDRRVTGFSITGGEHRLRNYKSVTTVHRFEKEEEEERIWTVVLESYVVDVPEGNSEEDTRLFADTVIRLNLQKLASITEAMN; partner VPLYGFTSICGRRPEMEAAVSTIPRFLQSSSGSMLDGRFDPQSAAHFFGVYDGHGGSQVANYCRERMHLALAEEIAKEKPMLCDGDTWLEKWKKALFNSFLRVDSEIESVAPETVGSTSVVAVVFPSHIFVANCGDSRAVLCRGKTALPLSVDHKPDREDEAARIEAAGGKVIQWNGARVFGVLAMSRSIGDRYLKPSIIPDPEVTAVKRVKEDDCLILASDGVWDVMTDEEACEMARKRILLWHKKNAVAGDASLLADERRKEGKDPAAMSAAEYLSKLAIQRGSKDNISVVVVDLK
Under “relative binding score”, `L112T` is recorded as -0.591%.
`A84I`: “relative binding score” 9.74%.
`H110K`: “relative binding score” -0.246%.
Under “relative binding score”, `E152D` is recorded as 73.7%.
For `P36G`, “relative binding score” read 23.5%.
For `W134L`, “relative binding score” read 75.3%.

Other studies, line by line
The fold induction of `PhoQ, residues 284 288 289 292 302 303 AQGLTV` is reported as 0.693 (PhoP, residues 12 14 15 18 19 VHSCL (Escherichia coli, UniProt P23836); Sort-seq, item: YFP reporter; E. coli; PhoQ-PhoP variant library, with: 10 µM Mg2+; reference: high Mg2+ state, higher = stronger signaling).

Some of these lines once more (study 2):
`CTCTTTTTGCTTTCTTTATGGTGCTAG` has a log fluorescence of 2.18 z-score.
`GCCGGACTGGGGTTTCGGGACGTGCTA` has a log fluorescence of 1 z-score.
With `TTAGGAATCGGGTATCGGTTAGTGCTA` the log fluorescence was 1.07 z-score.
`GACGATATCAGTATTGAGACGTGCTAG` has a log fluorescence of -0.0305 z-score.
